{"data": "Measurements from different studies", "note": "Each numbered part is a random draw from the data of one study; scales do not carry over between parts.", "chain of UniProt O00141 (whole entry, looked up)": "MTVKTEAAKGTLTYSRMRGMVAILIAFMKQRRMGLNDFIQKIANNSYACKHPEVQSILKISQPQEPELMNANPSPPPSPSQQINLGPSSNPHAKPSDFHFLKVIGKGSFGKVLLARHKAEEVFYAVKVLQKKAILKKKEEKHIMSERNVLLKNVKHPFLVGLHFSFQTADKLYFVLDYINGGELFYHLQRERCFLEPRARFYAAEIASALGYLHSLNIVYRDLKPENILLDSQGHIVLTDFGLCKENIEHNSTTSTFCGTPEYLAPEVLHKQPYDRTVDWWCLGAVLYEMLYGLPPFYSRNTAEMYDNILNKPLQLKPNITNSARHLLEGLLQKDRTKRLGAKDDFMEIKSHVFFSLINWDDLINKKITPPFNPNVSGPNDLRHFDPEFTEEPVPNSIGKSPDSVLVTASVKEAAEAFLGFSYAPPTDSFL"}
{"data": "Series 1", "target": "Phosphate system positive regulatory protein PHO4, full length, GST-tagged (PHO4, Saccharomyces cerevisiae, UniProt P07270, residues 1-312)", "technique": "competition protein-binding microarray", "form": "double-stranded DNA, one strand shown", "matrix": "in vitro", "tested at": "2 µM", "notes": "whole 60-bp probe, lowest competitor level", "together with": "Cbf1 competitor, 0.05 µM", "reading": "higher = stronger binding", "shared flanks, not repeated": "… GTCTTGATTCGCTTGACGCTGCTG", "Residues (chain)": "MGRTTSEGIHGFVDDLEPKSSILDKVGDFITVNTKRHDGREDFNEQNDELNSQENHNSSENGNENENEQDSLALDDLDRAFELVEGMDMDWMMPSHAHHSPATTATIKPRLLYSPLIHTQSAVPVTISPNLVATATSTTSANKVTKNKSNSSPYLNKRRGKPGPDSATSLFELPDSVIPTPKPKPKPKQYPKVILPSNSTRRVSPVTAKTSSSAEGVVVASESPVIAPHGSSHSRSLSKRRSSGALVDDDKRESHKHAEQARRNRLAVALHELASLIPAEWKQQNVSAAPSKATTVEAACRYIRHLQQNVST"}
{"Oligonucleotide": "ACAAAGAGAGATGAATCCGTGCGATCCATTGTAGAA", "fluorescence intensity [a.u.]": 5530}
{"Oligonucleotide": "AAATTACTAAGTTGTGGAGTGGGTGACGCCGTATGA", "fluorescence intensity [a.u.]": 3920}
{"Oligonucleotide": "TTCCACCGAATTTCCCACCTGATAATATCTGATAAC", "fluorescence intensity [a.u.]": 3770}
{"Oligonucleotide": "AAAGCCAGGCCGAGTCACGTCAGTTGCTGACCCTGG", "fluorescence intensity [a.u.]": 2990}
{"Oligonucleotide": "TGATACAAGTCGTCGTCCGTGACGAAGGATCAGGAA", "fluorescence intensity [a.u.]": 4010}
{"Oligonucleotide": "ATTGTCATCATCATCAGCGTGAGAAAGTCGAAACAA", "fluorescence intensity [a.u.]": 5120}
{"Oligonucleotide": "GTTTCTTTATTAGTGCGGTGATATACCTCATATTAT", "fluorescence intensity [a.u.]": 4360}
{"Oligonucleotide": "CATACCCAACCTTGTCACATCACTTAAGATATTTGT", "fluorescence intensity [a.u.]": 4290}
{"data": "Series 2", "target": "Transcription factor SOX-2, HMG box (Sox2, Mus musculus, UniProt P48432, residues 41-119)", "technique": "Spec-seq", "form": "double-stranded DNA, one strand shown", "matrix": "in vitro", "tested at": "not given", "notes": "whole probe, mean of replicates", "baseline": "not given", "reading": "lower = stronger binding", "shared flanks, not repeated": "GAGTCGTCTCGTCAGCAC … CCGTAGAGCACTCAGGTC", "chain of UniProt P48432 (41-119, looked up)": "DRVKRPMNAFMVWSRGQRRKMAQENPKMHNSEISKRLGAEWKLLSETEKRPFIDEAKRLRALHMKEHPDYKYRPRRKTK"}
{"Oligonucleotide": "ATCTGTT", "relative binding energy [ln ratio]": -0.153}
{"Oligonucleotide": "AATAGTT", "relative binding energy [ln ratio]": -2.02}
{"Oligonucleotide": "GTGGGTT", "relative binding energy [ln ratio]": 1.47}
{"Oligonucleotide": "TCATGTT", "relative binding energy [ln ratio]": 0.252}
{"Oligonucleotide": "CATGTTA", "relative binding energy [ln ratio]": 0.397}
{"Oligonucleotide": "TTCGGTT", "relative binding energy [ln ratio]": 1.11}
{"Oligonucleotide": "CATGTGG", "relative binding energy [ln ratio]": 0.371}
{"Oligonucleotide": "TTTAGTT", "relative binding energy [ln ratio]": -0.332}
{"data": "Series 3", "target": "TAR DNA-binding protein 43, full length, His tag (TARDBP, Homo sapiens, UniProt Q13148, residues 1-414)", "technique": "RNA Bind-n-Seq", "form": "RNA", "matrix": "in vitro", "tested at": "20 nM", "notes": "6-mer, flanks averaged, single round", "together with": "150 mM LiCl", "baseline": "input library", "reading": "higher = stronger binding"}
{"Oligonucleotide": "GAGGUC", "6-mer enrichment (R)": 0.954}
{"Oligonucleotide": "ACGGUG", "6-mer enrichment (R)": 1.04}
{"Oligonucleotide": "GAGGUU", "6-mer enrichment (R)": 1.08}
{"Oligonucleotide": "GGCUGG", "6-mer enrichment (R)": 1.17}
{"Oligonucleotide": "GUACCU", "6-mer enrichment (R)": 0.899}
{"Oligonucleotide": "AAUCUA", "6-mer enrichment (R)": 0.844}
{"Oligonucleotide": "AGGUUG", "6-mer enrichment (R)": 1.11}
{"Oligonucleotide": "AGGCUA", "6-mer enrichment (R)": 0.866}
{"data": "Single results of other studies"}
{"Compound": "Nc1c(C(=O)NCc2ccc(C(=O)NCCCC3CCCCC3)cc2)cnn1-c1ccccc1", "target": "Serine/threonine-protein kinase Sgk1 (SGK1, Homo sapiens, UniProt O00141)", "assay": "cell-free assay, competition with immobilised ligand", "conditions": "0.1 µM", "quantity": "remaining binding", "result": "100%"}
{"note": "Excerpt of the above (series 1):"}
{"Oligonucleotide": "GTTTCTTTATTAGTGCGGTGATATACCTCATATTAT", "fluorescence intensity [a.u.]": 4360}
{"Oligonucleotide": "ATTGTCATCATCATCAGCGTGAGAAAGTCGAAACAA", "fluorescence intensity [a.u.]": 5120}
